Results pooled from the literature.
± marks the error that the study gave. ≈ marks a conversion by molar mass, not a printed value.
MAL12: Alpha-glucosidase MAL12 (MAL12, Saccharomyces cerevisiae S288c, UniProt P53341)
UniProt P53341, sequence (whole entry, looked up): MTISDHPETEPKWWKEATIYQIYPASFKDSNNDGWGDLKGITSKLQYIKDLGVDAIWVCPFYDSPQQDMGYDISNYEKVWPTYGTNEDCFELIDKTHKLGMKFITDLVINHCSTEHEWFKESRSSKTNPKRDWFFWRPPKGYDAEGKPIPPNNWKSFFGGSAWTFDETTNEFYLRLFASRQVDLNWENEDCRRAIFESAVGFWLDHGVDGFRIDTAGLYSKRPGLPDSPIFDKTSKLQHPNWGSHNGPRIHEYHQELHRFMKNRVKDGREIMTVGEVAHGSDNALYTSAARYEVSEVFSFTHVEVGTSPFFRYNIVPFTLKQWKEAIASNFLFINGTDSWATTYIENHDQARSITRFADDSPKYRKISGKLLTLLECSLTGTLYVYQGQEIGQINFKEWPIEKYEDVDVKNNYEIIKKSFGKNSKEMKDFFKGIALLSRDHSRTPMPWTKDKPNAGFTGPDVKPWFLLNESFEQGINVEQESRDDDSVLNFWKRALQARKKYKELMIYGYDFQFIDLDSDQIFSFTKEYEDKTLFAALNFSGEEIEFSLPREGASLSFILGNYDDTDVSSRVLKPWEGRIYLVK
SCN9A: Sodium channel protein type 9 subunit alpha (SCN9A, Homo sapiens, UniProt Q15858)
UniProt Q15858, sequence (whole entry, looked up): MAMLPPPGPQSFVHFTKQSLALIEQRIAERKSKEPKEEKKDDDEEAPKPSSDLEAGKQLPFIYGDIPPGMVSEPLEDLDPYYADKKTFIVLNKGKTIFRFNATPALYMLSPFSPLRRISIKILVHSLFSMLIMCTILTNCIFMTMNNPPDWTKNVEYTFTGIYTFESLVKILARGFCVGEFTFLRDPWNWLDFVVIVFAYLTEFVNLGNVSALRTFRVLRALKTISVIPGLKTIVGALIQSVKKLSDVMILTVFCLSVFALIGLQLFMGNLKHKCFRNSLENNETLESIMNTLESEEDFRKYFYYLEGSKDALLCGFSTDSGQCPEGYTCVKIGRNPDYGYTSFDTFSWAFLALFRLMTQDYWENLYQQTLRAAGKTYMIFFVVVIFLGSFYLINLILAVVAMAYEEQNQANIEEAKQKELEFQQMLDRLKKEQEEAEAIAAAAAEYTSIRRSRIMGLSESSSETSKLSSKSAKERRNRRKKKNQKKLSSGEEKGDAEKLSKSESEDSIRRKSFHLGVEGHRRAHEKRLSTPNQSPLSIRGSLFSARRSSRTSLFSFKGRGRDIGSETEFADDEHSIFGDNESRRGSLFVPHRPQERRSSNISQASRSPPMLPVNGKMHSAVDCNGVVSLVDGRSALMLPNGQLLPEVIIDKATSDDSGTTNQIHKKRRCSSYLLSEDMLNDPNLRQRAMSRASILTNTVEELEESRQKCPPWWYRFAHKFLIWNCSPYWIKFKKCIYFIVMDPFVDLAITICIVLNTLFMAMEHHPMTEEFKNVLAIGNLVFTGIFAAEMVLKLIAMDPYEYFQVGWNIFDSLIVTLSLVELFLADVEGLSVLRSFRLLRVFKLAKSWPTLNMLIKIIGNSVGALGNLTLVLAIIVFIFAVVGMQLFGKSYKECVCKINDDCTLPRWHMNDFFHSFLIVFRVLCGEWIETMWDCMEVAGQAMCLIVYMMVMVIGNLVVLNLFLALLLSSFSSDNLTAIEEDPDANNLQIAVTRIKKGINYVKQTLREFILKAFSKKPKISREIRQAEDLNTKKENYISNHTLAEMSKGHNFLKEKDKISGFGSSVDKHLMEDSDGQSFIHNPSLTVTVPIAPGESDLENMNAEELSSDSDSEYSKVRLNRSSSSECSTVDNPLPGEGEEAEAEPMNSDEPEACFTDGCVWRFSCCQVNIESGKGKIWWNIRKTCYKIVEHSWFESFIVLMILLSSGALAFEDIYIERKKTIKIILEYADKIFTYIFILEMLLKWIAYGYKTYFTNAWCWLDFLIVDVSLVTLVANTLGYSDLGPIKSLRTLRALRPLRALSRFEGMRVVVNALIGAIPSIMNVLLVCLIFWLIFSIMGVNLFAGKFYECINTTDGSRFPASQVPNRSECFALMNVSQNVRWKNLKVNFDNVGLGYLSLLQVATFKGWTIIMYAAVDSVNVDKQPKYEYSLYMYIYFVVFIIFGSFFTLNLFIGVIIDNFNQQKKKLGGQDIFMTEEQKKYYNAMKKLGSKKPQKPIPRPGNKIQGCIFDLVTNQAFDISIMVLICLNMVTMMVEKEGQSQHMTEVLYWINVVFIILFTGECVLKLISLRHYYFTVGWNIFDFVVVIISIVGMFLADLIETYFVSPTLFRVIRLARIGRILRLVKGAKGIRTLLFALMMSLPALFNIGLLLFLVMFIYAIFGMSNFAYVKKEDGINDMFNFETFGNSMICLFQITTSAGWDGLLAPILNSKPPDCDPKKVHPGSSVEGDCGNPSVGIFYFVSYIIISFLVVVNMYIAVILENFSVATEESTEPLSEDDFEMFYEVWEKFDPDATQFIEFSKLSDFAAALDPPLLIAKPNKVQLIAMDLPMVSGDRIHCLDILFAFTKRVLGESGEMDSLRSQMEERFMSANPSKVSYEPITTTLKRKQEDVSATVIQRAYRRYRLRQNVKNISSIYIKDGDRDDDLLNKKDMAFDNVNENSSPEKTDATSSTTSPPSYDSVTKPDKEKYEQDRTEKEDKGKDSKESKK
WWOX WW1 domain: WW domain-containing oxidoreductase, WW1 domain (WWOX, Homo sapiens, UniProt Q9NZC7)
UniProt Q9NZC7, sequence (whole entry, looked up): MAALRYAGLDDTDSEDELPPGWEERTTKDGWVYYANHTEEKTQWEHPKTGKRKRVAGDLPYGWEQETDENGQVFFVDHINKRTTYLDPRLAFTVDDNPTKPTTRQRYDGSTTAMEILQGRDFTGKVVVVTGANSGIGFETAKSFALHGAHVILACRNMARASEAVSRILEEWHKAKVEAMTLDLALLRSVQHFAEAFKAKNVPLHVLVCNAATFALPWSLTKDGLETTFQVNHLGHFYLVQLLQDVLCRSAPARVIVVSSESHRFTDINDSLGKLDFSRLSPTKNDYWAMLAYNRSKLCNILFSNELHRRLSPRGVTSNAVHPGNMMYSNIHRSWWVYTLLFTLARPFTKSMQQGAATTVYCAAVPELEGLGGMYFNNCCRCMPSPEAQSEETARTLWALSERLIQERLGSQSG
UniProt P69905, sequence (whole entry, looked up): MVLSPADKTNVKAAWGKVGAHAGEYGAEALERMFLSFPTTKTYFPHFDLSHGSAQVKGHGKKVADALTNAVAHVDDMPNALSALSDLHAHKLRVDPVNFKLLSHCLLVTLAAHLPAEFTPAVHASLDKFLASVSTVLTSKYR
UniProt Q62645, sequence (whole entry, looked up): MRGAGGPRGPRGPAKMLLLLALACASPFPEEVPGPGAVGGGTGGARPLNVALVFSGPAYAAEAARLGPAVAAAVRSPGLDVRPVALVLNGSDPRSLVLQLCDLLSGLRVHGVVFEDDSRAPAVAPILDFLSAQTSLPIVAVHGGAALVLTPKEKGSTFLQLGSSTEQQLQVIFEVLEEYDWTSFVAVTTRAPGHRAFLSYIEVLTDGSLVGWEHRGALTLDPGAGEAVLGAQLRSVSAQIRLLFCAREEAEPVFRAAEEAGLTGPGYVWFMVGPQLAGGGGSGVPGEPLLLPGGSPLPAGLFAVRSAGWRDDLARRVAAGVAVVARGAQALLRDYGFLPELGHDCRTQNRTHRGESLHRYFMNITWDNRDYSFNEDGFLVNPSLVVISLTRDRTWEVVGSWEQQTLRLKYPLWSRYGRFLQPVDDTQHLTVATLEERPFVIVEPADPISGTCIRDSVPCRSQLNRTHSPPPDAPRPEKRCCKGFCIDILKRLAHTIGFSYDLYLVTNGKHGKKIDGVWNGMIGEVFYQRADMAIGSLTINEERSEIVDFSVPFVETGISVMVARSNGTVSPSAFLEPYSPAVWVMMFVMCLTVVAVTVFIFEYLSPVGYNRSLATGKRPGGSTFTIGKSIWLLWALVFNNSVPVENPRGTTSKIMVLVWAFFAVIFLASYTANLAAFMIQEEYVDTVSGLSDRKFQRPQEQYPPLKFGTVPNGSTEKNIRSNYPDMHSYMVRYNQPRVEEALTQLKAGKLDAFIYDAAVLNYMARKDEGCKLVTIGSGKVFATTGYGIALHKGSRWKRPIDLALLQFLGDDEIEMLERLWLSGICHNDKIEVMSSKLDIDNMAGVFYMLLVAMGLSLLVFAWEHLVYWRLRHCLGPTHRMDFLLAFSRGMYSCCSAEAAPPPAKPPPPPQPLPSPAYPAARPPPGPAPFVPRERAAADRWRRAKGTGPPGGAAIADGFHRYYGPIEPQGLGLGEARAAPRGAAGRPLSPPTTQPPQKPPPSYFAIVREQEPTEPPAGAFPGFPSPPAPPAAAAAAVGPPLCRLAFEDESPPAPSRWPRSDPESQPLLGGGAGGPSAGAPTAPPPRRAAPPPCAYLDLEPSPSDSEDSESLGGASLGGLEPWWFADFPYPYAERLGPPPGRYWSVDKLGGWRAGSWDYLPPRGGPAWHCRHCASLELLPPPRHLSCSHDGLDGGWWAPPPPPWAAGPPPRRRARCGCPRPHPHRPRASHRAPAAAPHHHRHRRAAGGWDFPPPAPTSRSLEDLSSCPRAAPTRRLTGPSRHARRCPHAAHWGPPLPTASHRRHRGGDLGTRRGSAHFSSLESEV
UniProt P15927, sequence (whole entry, looked up): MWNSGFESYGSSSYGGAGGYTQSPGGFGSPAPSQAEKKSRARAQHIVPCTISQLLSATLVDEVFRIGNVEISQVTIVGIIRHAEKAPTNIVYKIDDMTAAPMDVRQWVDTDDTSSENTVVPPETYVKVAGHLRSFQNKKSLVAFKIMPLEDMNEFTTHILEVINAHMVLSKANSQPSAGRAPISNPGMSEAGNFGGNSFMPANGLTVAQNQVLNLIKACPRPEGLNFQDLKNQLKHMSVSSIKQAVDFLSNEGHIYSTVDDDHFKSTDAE
UniProt P0DMS8, sequence (whole entry, looked up): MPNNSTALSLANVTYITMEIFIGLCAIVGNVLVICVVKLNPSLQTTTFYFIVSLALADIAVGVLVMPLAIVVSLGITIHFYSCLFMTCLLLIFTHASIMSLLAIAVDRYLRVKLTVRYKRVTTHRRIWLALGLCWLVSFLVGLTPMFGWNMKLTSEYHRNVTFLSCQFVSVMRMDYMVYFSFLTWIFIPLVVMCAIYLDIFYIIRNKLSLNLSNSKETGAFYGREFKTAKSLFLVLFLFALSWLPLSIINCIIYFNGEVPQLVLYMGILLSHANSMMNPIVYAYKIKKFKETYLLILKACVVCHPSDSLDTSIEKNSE

CNC(=O)[C@H]1O[C@@H](n2cnc3c(NCc4cccc(I)c4)ncnc32)[C@H](O)[C@@H]1O
Hill slope (Adenosine receptor A3 (ADORA3, Homo sapiens, UniProt P0DMS8); [3H]PSB-11 displacement; CHO membranes; added: GTP 1 mM): -0.99 ± 0.07

COc1c(-c2ccc(O)cc2)oc2c(OC)c(O)cc(O)c2c1=O
inhibition (MAL12; enzyme activity, p-nitrophenyl glucoside substrate; 10 µM, series down to 1 µM): 82.5 ± 0.8%

[H]/N=C(\N/C(=N/[H])NCCCCCCNC(=N)NC(=N)Nc1ccc(Cl)cc1)Nc1ccc(Cl)cc1
liposome-bound oligomers (Alpha-synuclein, oligomers (SNCA, Homo sapiens, UniProt P37840); oligomer-vesicle binding, FIDA; 5 µM, added: 150 nM oligomers, 50 µM DOPG liposomes): 0%

CC(C)S[C@@H]1O[C@H](CO)[C@H](O)[C@H](O)[C@H]1O
MIC (PA-I galactophilic lectin (lecA, Pseudomonas aeruginosa, UniProt Q05097); hemagglutination, inhibitor; rabbit erythrocytes; 30 min, 4 °C): 1100 µM (≈ 262 µg/mL)

Clc1cccc(Nc2nnc(-c3ccccc3)c3ccccc23)c1
IC50 (cGMP-dependent 3',5'-cyclic phosphodiesterase (PDE2A, Homo sapiens, UniProt O00408); cAMP hydrolysis, inhibitor, fluorescence polarization; recombinant enzyme; up to 100 µM, 30 min preincubation, 30 °C, added: fluorescein-cAMP 25 nM): inactive

BzATP
decay time constant τ1 (P2X purinoceptor 7 (P2rx7, Rattus norvegicus, UniProt Q64663); ion current, whole-cell patch clamp; HEK293, transfected; added: after agonist washout, Ca2+ medium): 2.8 ± 0.5 s

COC(=O)c1scc(C)c1NC(=O)C(C)N1CC(C)OC(C)(C)C1 (stereo not shown)
capacity factor k′ (SCN9A; cell membrane chromatography; higher = stronger binding): 5.8

COc1cc2c(=O)c(OC)c(-c3ccccc3)oc2c(O)c1OC
inhibition (MAL12; enzyme activity, inhibitor, absorbance; 25 µM): 20.4%

CC(C)(C)OC(=O)OCc1ccc(C=O)o1
P50 change (Hemoglobin subunit alpha, with sickle beta chain (HBA1, Homo sapiens, UniProt P69905); oxygen affinity; sickle red cell lysate; 2 mM; reference: untreated): 44.8 ± 12.9%

flavin mononucleotide
Ki (Isopentenyl-diphosphate delta-isomerase (fni, Streptococcus pneumoniae serotype 4, UniProt Q97SH8); substrate; pH 7.0, 37 °C, substrate inhibition, added: 150 µM IPP and NADPH): 6.4 ± 1 µM

CCCNC(C)C(=O)Nc1c(C)csc1C(=O)OCC (stereo not shown)
capacity factor k′ (SCN9A; cell membrane chromatography; higher = stronger binding): 52.8

COc1ccc(-c2cc(=O)c3ccc(O)cc3o2)cc1
inhibition (MAL12; enzyme activity, inhibitor; 10 µM, added: p-nitrophenyl α-D-glucopyranoside): < 1%

CCOCc1ccc(C=O)o1
peak modification (Hemoglobin subunit alpha, with beta chain (HBA1, Homo sapiens, UniProt P69905); refers to: haemoglobin A adduct; human normal whole blood; 2 mM, 24 h, hematocrit 30%): 27.9%

CCCCCCCCC(=O)NC1CCC1=O (stereo not shown)
IC50 (N-acylethanolamine-hydrolyzing acid amidase (NAAA, Homo sapiens, UniProt Q02083); enzyme activity, inhibitor, fluorogenic PAMCA hydrolysis; pH 4.5, added: 5 µM PAMCA): inactive

CC[C@H](C)[C@H](NC(=O)[C@H](CCC(=O)O)NC(=O)[C@@H]1CCCN1C(=O)[C@H](CCCNC(=N)N)NC(C)=O)C(=O)N[C@@H](Cc1c[nH]c2ccccc12)C(=O)N[C@@H](Cc1ccc(O)cc1)C(=O)N[C@@H](C)C(=O)N[C@@H](CCC(N)=O)C(=O)NCC(=O)N[C@@H](CC(C)C)C(=O)N[C@@H](CCCCN)C(=O)N[C@@H](CCCNC(=N)N)C(=O)N[C@@H](Cc1ccccc1)C(=O)NCC(=O)N[C@@H](CC(=O)O)C(=O)N[C@@H](CCC(=O)O)C(=O)N[C@@H](Cc1ccccc1)C(=O)N[C@@H](CC(N)=O)C(=O)N[C@@H](C)C(=O)N[C@@H](Cc1ccc(O)cc1)C(=O)N[C@@H](Cc1ccc(O)cc1)C(=O)N[C@@H](C)C(=O)N[C@@H](CCCNC(=N)N)C(N)=O
highest concentration without competition (human Bfl-1 (residues 1-151); binding, fluorescence polarization competition; 50 nM protein, added: 10 nM fluorescein Bim-BH3; no competition up to this value): > 10 µM

CC[C@H](C)[C@H](NC(=O)[C@@H]1CCCN1C(=O)[C@@H]1CCCN1C(=O)[C@@H]1CCCN1C(=O)[C@@H](NC(=O)[C@H](CC(N)=O)NC(=O)[C@@H](N)Cc1ccccc1)[C@@H](C)CC)C(=O)N[C@@H](Cc1ccc(O)cc1)C(=O)N[C@H](C(=O)N[C@@H](CO)C(=O)N[C@@H](CCCNC(=N)N)C(=O)N[C@@H](C)C(=O)O)[C@@H](C)O
TΔS (WWOX WW1 domain; binding, ITC; pH 7.0, 25 °C): -2.21 ± 0.43 kcal/mol

COc1ccc(OCC2c3cc(OC)c(OC)cc3CCN2C(=O)c2cccc(Cl)c2)cc1 (stereo not shown)
open time constant 1 (Glutamate receptor ionotropic, NMDA 2D, with NR1 (Rattus norvegicus, UniProt Q62645); outside-out patch clamp; 10 µM, added: GluN1 co-expressed): 0.036 ± 0.003 ms

CCN1C(=O)c2ccccc2[S+]([O-])c2ccc(C(=O)OCc3ccc(OC)cc3)cc21 (stereo not shown)
AC50 (D(2) dopamine receptor (DRD2, Homo sapiens, UniProt P14416); calcium mobilization, antagonist; HEK293 T-REx D2 Gqi5; up to 77 µM): inactive

CC(=O)N[C@@H]1[C@@H](O)[C@H](O[C@@H]2O[C@H](CO)[C@@H](O[C@@H]3O[C@H](CO[C@H]4O[C@H](CO[C@H]5O[C@H](CO)[C@@H](O)[C@H](O)[C@@H]5O[C@H]5O[C@H](CO)[C@@H](O)[C@H](O)[C@@H]5O)[C@@H](O)[C@H](O[C@H]5O[C@H](CO)[C@@H](O)[C@H](O)[C@@H]5O[C@H]5O[C@H](CO)[C@@H](O)[C@H](O)[C@@H]5O)[C@@H]4O)[C@@H](O)[C@H](O[C@H]4O[C@H](CO)[C@@H](O)[C@H](O)[C@@H]4O[C@H]4O[C@H](CO)[C@@H](O)[C@H](O)[C@@H]4O[C@H]4O[C@H](CO)[C@@H](O)[C@H](O)[C@@H]4O)[C@@H]3O)[C@H](O)[C@H]2NC(C)=O)[C@@H](CO)O[C@H]1NC(=O)C[C@H](N)C(=O)O
fluorescence (NT1 (Nicotiana tabacum, UniProt Q94EW1); glycan binding, glycan array; added: Alexa 488-labelled lectin 150 µg/mL): 14800 RFU

CC1=C(C(=O)OCc2ccccc2)C(c2ccc(-c3ccccc3C)cc2)N(Cc2ccc(-c3nnn[nH]3)cc2)C(=S)N1 (stereo not shown)
fold change in activity (Heat shock 70 kDa protein 1A, with Hdj2 (HSPA1A, Homo sapiens, UniProt P0DMV8); ATPase activity, inhibitor; 100 µM, Hsp40-stimulated activity, added: Hdj2 Hsp70:Hsp40 1:0.5; reference: DMSO, negative means inhibition): -4.8 fold

CC(C)C[C@H](NC(=O)[C@@H](NC(=O)[C@@H](N)[C@@H](C)O)C(C)C)C(=O)N1CCC[C@H]1C(=O)N1CCC[C@H]1C(=O)N1CCC[C@H]1C(=O)N1CCC[C@H]1C(=O)N[C@@H](Cc1ccc(O)cc1)C(=O)N[C@@H](CCCNC(=N)N)C(=O)N[C@@H](C)C(=O)N[C@@H](CCCNC(=N)N)C(=O)N[C@@H](CC(N)=O)C(=O)O
binding enthalpy ΔH (WWOX WW1 domain; binding to WW1 domain, isothermal titration calorimetry; concentration not given, pH 7.0, 25 °C): -11.4 ± 1.41 kcal/mol

CN(C)c1ccc(C=CC(=O)O)cc1
kinact (Peptidylglycine alpha-amidating monooxygenase, PHM domain (Pam, Rattus norvegicus, UniProt P14925); inactivator; pH 6.0, 37 °C, added: 5.0 mM ascorbate): 0.00133 ± 0.000167 s⁻¹

C[N+](C)(C)C[C@@H](O)CC(=O)[O-]
inhibition (Organic cation/carnitine transporter 2 (SLC22A5, Homo sapiens, UniProt O76082); transporter uptake, inhibitor; 50 µM): 73.3%

COc1cc(/C=C/C(=O)CC(=O)/C=C/c2ccc(O)c(OC)c2)ccc1O
emission maximum (Protein kinase C delta type, C1B domain (Prkcd, Mus musculus, UniProt P28867); buffer; 5×1 µM, 1 h, 25 °C, protein excess): 559 nm

DDLKQKACESRCTKL
patients with IgE binding (human IgE; peptide microarray; peptide, walnut-allergic patient sera; concentration not given, 16 h, 4 °C): 0%

CC[C@H](C)[C@H](NC(=O)[C@H](CCCCN)NC(=O)[C@H](CCCCN)NC(=O)[C@H](CCCNC(=N)N)NC(=O)[C@H](CCC(N)=O)NC(=O)[C@H](CCC(=O)O)NC(=O)[C@H](CCC(=O)O)NC(=O)[C@@H](NC(=O)[C@H](CC(C)C)NC(=O)[C@@H]1CCCN1C(=O)[C@H](CC(C)C)NC(=O)[C@H](CO)NC(=O)[C@@H](N)CCSC)[C@@H](C)O)C(=O)N[C@@H](CCC(=O)O)C(=O)N[C@@H](CCC(=O)O)C(=O)N[C@@H](CC(N)=O)C(=O)N[C@@H](CCCNC(=N)N)C(=O)N[C@@H](CCC(N)=O)C(=O)N[C@@H](CCCCN)C(=O)N[C@@H](C)C(=O)N[C@@H](CC(C)C)C(=O)N[C@@H](C)C(=O)N[C@@H](CCCNC(=N)N)C(=O)N[C@@H](CCCNC(=N)N)C(=O)N[C@@H](C)C(=O)N[C@@H](CCC(=O)O)C(=O)N[C@@H](CCCCN)C(=O)N[C@@H](CC(C)C)C(=O)N[C@@H](CC(C)C)C(=O)N[C@@H](C)C(=O)N[C@@H](CCC(=O)O)C(=O)N[C@@H](CCC(N)=O)C(=O)O
α-helical content increase (Replication protein A 32 kDa subunit, C-terminal domain (RPA2, Homo sapiens, UniProt P15927); CD spectroscopy; 20 µM, pH 7.0, 25 °C; reference: free components): 20%

COc1ccc(-c2cc(=O)c3c(O)cc(OC)cc3o2)cc1
inhibition (MAL12; enzyme activity, inhibitor; 10 µM, added: p-nitrophenyl α-D-glucopyranoside): < 1%

CSCC[C@H](NC(=O)[C@@H]1CCCN1C(=O)[C@@H](NC(=O)[C@H](Cc1ccc(O)cc1)NC(=O)[C@H](C)NC(=O)[C@@H]1CCCN1C(=O)[C@@H]1CCCN1C(=O)[C@@H]1CCCN1C(=O)[C@H](CO)NC(=O)[C@H](Cc1c[nH]cn1)NC(=O)CN)[C@@H](C)O)C(=O)N[C@@H](CO)C(=O)O
ΔG (WWOX WW1 domain; binding, ITC; pH 7.0, 25 °C): -4.7 ± 0.07 kcal/mol

O=c1c(O)c(-c2ccc(O)c(O)c2)oc2cc(O)cc(O)c12
V1/2 shift (Kcnh1 (Mus musculus, UniProt Q60603); inside-out patch clamp; Xenopus oocytes; 10 µM): -10.1 ± 3.5 mV

C#CCN(C)Cc1ccccc1
remaining activity (Amine oxidase [flavin-containing] A (MAOA, Homo sapiens, UniProt P21397); enzyme activity, inhibitor, dialysis reversibility; 4 × IC50, 24 h dialysis; reference: no inhibitor): 1.9%

S=C(NC1CCCCC1)N1CCC(c2c[nH]cn2)CC1
pKB (Histamine H3 receptor (HRH3, Homo sapiens, UniProt Q9Y5N1); imetit-stimulated Eu-GTP binding, antagonist, time-resolved fluorescence; membranes; added: imetit): 8.26 ± 0.1

A few entries again:
COc1ccc(OCC2c3cc(OC)c(OC)cc3CCN2C(=O)c2cccc(Cl)c2)cc1 (stereo not shown)
open time constant 1 (Glutamate receptor ionotropic, NMDA 2D, with NR1 (Rattus norvegicus, UniProt Q62645); outside-out patch clamp; 10 µM, added: GluN1 co-expressed): 0.036 ± 0.003 ms

S=C(NC1CCCCC1)N1CCC(c2c[nH]cn2)CC1
pKB (Histamine H3 receptor (HRH3, Homo sapiens, UniProt Q9Y5N1); imetit-stimulated Eu-GTP binding, antagonist, time-resolved fluorescence; membranes; added: imetit): 8.26 ± 0.1
